Published values of several laboratories.
A part holds a random share of what one study measured.
UniProt P22607, sequence (whole entry, looked up): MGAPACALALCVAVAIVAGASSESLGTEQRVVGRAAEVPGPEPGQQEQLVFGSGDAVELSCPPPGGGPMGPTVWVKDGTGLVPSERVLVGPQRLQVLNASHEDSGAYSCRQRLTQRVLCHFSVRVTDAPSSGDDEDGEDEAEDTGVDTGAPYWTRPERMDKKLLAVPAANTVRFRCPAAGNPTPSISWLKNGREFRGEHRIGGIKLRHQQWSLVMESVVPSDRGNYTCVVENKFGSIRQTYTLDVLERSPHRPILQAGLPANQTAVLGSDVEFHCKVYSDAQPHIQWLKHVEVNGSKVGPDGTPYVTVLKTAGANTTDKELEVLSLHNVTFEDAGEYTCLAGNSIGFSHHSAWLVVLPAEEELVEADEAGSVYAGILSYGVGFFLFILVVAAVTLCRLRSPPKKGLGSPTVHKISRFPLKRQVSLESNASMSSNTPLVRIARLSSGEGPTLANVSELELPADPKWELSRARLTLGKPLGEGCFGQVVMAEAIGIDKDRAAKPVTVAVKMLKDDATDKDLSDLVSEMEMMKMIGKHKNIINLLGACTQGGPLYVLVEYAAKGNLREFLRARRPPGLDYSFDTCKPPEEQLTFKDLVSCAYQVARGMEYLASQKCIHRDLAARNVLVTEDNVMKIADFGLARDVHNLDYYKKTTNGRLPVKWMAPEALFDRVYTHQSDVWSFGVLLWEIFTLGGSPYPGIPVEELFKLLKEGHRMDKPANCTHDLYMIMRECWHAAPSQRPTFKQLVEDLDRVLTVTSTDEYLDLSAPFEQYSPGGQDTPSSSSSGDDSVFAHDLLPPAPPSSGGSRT
UniProt Q13131, sequence (whole entry, looked up): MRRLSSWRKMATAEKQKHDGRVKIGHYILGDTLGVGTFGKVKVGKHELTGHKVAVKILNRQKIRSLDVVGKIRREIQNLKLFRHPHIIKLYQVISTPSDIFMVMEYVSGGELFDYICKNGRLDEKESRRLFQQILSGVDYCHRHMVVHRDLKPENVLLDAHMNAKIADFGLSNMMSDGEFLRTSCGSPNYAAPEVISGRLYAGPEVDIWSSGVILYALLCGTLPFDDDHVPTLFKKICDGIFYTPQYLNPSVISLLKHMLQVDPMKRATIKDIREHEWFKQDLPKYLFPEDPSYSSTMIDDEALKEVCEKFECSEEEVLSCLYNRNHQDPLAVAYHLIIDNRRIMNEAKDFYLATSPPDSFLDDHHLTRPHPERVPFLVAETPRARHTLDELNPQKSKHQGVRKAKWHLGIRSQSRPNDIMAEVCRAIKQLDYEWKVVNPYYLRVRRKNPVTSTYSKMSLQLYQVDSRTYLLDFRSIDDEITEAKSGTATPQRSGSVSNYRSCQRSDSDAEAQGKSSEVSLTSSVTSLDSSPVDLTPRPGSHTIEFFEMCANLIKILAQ
UniProt Q9BRS2, sequence (whole entry, looked up): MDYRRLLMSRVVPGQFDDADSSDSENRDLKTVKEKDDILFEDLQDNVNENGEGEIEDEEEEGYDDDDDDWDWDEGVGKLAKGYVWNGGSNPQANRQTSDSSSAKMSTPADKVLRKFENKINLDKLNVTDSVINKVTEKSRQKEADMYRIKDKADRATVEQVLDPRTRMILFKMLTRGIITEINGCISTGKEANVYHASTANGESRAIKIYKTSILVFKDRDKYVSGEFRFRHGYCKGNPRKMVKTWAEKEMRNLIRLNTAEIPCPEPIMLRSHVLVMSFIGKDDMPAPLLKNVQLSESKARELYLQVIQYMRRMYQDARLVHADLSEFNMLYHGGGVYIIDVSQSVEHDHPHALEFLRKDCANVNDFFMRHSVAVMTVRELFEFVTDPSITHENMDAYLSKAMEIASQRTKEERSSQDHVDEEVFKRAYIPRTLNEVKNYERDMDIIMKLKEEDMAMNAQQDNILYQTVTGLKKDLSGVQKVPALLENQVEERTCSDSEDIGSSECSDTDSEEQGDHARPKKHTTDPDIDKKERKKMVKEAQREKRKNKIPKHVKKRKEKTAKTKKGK
UniProt O60331, sequence (whole entry, looked up): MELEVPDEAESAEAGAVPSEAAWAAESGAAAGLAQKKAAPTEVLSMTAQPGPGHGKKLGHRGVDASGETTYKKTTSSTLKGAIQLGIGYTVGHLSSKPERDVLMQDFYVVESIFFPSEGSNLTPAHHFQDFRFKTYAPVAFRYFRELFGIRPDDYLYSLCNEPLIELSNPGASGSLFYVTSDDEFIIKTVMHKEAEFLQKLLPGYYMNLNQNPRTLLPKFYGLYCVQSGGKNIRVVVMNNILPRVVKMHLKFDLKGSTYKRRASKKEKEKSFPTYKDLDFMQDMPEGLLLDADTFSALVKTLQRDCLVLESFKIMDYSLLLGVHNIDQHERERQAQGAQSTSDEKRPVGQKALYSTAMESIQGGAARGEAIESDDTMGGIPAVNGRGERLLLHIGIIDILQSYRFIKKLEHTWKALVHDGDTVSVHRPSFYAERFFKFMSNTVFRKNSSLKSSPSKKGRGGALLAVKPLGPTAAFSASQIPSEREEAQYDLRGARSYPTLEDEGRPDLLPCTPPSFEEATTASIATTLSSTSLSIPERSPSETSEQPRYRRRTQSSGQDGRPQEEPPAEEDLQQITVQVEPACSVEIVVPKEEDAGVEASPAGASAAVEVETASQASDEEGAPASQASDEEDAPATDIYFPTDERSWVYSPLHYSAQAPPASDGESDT
UniProt P30291, sequence (whole entry, looked up): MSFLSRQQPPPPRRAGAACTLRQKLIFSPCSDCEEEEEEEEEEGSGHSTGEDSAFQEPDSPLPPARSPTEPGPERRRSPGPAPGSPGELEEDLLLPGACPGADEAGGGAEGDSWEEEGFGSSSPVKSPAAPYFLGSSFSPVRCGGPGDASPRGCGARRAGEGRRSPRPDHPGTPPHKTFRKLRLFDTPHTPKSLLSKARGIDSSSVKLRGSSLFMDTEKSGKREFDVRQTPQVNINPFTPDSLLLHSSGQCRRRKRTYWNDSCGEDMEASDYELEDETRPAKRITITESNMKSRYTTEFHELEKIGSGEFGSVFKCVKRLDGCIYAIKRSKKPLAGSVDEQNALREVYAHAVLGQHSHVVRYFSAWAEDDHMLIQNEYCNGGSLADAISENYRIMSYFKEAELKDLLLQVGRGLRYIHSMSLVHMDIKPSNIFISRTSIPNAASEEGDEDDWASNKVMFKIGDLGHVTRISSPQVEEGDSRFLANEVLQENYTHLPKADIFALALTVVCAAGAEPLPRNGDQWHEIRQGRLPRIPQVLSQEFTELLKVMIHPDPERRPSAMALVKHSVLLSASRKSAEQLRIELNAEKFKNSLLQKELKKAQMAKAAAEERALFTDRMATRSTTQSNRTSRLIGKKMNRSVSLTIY
UniProt Q92630, sequence (whole entry, looked up): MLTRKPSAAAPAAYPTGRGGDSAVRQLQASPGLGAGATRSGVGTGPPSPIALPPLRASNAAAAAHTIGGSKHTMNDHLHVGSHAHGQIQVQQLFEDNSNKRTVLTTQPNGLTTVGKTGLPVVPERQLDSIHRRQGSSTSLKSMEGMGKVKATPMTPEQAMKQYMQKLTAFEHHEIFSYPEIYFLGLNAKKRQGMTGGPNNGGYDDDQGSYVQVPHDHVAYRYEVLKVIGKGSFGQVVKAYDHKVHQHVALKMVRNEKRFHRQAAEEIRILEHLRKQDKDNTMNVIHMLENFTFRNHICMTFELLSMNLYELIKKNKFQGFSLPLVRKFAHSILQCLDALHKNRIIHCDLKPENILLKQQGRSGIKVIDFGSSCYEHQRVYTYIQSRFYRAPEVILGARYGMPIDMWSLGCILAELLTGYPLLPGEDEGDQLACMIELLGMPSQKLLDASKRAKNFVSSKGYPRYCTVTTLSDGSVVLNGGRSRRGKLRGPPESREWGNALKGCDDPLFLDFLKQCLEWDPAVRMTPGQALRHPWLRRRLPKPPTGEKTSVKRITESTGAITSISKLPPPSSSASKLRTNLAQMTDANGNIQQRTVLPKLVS
UniProt O23661, sequence (whole entry, looked up): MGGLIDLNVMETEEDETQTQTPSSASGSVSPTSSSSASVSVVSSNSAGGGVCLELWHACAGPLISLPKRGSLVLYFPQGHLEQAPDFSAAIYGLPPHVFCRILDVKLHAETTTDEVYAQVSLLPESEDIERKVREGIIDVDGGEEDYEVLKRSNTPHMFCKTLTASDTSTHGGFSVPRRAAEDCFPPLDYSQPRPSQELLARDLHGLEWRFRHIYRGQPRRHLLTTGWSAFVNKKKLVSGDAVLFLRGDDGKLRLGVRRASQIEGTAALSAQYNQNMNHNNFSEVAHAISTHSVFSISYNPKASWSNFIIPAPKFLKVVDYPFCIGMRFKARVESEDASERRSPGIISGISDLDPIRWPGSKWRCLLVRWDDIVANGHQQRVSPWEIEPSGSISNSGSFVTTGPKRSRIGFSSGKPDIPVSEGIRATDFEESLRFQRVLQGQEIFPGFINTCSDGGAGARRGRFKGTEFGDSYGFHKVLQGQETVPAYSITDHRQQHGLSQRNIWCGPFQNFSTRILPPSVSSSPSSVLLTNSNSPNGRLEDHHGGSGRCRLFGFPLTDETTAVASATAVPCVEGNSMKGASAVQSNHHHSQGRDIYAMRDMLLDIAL
UniProt Q8IU85, sequence (whole entry, looked up): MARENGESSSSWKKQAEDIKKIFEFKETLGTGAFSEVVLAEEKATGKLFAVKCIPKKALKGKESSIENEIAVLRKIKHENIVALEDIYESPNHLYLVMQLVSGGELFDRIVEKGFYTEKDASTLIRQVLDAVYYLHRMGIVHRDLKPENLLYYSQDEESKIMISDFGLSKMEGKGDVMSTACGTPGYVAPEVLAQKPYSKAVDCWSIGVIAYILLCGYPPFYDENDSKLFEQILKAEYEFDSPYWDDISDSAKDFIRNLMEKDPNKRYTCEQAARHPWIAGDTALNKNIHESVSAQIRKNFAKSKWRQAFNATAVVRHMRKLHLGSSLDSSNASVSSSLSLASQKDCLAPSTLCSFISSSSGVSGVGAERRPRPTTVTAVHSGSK

Series 1
Target: Sal-like protein 4, full length isoform B (SALL4, Homo sapiens, UniProt Q9UJQ4-2, residues 1-616)
Method: universal PBM
Form: double-stranded DNA, one strand shown
Sample: in vitro
Concentration: not given
Notes: 8-mer, flanks averaged, mean of replicates
Direction: higher = stronger binding
The E-score of `CGCGACTC` is reported as -0.207.
The E-score of `GTAATTAC` is reported as 0.262.
With `CTAGGCGA` the E-score was -0.16.
`CCCCTCAC` gave an E-score of -0.268.
For `GAAACCGC`, the E-score was -0.132.
`CCGCGAAC` gave an E-score of -0.252.
The E-score of `ATGTCCAG` is reported as -0.0702.
With `GAAACCGA` the E-score was -0.15.

Series 2
Compound: CN([C@@H]1CCc2c(CC(=O)O)c3ccccc3n2C1)S(=O)(=O)c1ccc(F)cc1
Observed: cell-free assay
Method: competition with immobilised ligand
Concentration: 1 µM
The remaining binding was 85% (TRPM6 (Homo sapiens, UniProt Q9BX84)).
DYRK2 (Homo sapiens, UniProt Q92630) — remaining binding: 95%.
For PRKCE (Homo sapiens, UniProt Q02156): remaining binding read 94%.
PIP5K1C (Homo sapiens, UniProt O60331) — remaining binding: 100%.
COQ8A (Homo sapiens, UniProt Q8NI60) — remaining binding: 100%.
PIK3CA (Homo sapiens, UniProt P42336, M1043I) — remaining binding: 100%.
For RIOK1 (Homo sapiens, UniProt Q9BRS2): remaining binding read 100%.
It gave 100% for remaining binding (FRK (Homo sapiens, UniProt P42685)).
For CDKL2 (Homo sapiens, UniProt Q92772): remaining binding read 100%.
GRK1 (Homo sapiens, UniProt Q15835) — remaining binding: 88%.
The remaining binding was 82% (MAK (Homo sapiens, UniProt P20794)).
NTRK3 (Homo sapiens, UniProt Q16288) — remaining binding: 100%.
Tyrosine-protein kinase ABL1, phosphorylated (ABL1, Homo sapiens, UniProt P00519, H396P) — remaining binding: 100%.
CAMK1D (Homo sapiens, UniProt Q8IU85) — remaining binding: 100%.
HIPK4 (Homo sapiens, UniProt Q8NE63) — remaining binding: 100%.
DCLK1 (Homo sapiens, UniProt O15075) — remaining binding: 82%.
EPHA4 (Homo sapiens, UniProt P54764) — remaining binding: 87%.
It gave 100% for remaining binding (PLK4 (Homo sapiens, UniProt O00444)).
For PRKAA1 (Homo sapiens, UniProt Q13131): remaining binding read 100%.
The remaining binding was 83% (PRKCQ (Homo sapiens, UniProt Q04759)).
For FGFR3 (Homo sapiens, UniProt P22607): remaining binding read 100%.

Series 3
Compound: Cn1sc(=O)n(Cc2ccccc2)c1=O
Observed: enzyme activity
Action: inhibitor
Concentration: 0.5 µM
Relative to: control
For FGFR3 (Homo sapiens, UniProt P22607): remaining activity read 100%.
MAP3K5 (Homo sapiens, UniProt Q99683) — remaining activity: 91.5%.
For TAOK2 (Homo sapiens, UniProt Q9UL54): remaining activity read 91%.
For TEK (Homo sapiens, UniProt Q02763): remaining activity read 90.9%.
The remaining activity was 101% (MST1R (Homo sapiens, UniProt Q04912)).
It gave 92.3% for remaining activity (WEE1 (Homo sapiens, UniProt P30291)).

Series 4
Target: TAR DNA-binding protein 43, full length, His tag (TARDBP, Homo sapiens, UniProt Q13148, residues 1-414)
Method: RNA Bind-n-Seq
Form: RNA
Sample: in vitro
Concentration: 20 nM
Notes: 6-mer, flanks averaged, single round
Added: 150 mM LiCl
Relative to: input library
Direction: higher = stronger binding
`GUUUUU`: “6-mer enrichment (R)” 1.57.
`AGAUGA` — result for “6-mer enrichment (R)”: 0.904.
`UGCGGC` — result for “6-mer enrichment (R)”: 1.05.
Under “6-mer enrichment (R)”, `CCUCGC` is recorded as 0.912.
`CUGAUA`: “6-mer enrichment (R)” 0.833.
`ACUUUA`: “6-mer enrichment (R)” 0.946.
`AUGAUG` — result for “6-mer enrichment (R)”: 1.04.
`AUAGAG` — result for “6-mer enrichment (R)”: 0.956.

Other studies, line by line
Partner: ARF11 500-622 (Arabidopsis thaliana, UniProt Q9ZPY6)
Method: two-hybrid
Relative to: out of 4 tests
Direction: higher = firmer interaction
B1: ARF1 538-665 (Arabidopsis thaliana, UniProt Q8L7G0); chain SRQIRSCTKVHMQGSAVGRAIDLTRSECYEDLFKKLEEMFDIKGELLESTKKWQVVYTDDEDDMMMVGDDPWNEFCGMVRKIFIYTPEEVKKLSPKNKLAVNARMQLKADAEENGNTEGRSSSMAGSR
B2: IAA29 (Arabidopsis thaliana, UniProt Q93WC4); chain MELDLGLSLSPHKSSKLGFNFDLNKHCAIEGAASCLGTEKLRFEATFGLGNVEENCYMPKQRLFALNGQPNEEDEDPLESESSIVYDDEEENSEVVGWPPVKTCMIKYGSYHHRHIRNHHHCPYHHRGRRITAMNNNISNPTTATVGSSSSSSISSRSSMYVKVKMDGVAIARKVDIKLFNSYESLTNSLITMFTEYEDCDREDTNYTFTFQGKEGDWLLRGDVTWKIFAESVHRISIIRDRPCAYTRCLF
Residues used in one study (chain): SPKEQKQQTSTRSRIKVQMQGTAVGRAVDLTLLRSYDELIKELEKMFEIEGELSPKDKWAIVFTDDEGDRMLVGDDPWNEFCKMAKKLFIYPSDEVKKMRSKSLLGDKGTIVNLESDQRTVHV
`ETT (Arabidopsis thaliana, UniProt O23661)` gave a positive tests of 0.
`B1 (ARF1 538-665)` has a positive tests of 0.
`B2 (IAA29)` gave a positive tests of 0.
